Measurements of several laboratories.
Numbered parts are unrelated; each lists some results of a single study.

Set 1
Target: Histone acetyltransferase KAT6A, both winged helices, GST fusion (KAT6A, Homo sapiens, UniProt Q92794, residues 1-181)
Technique: protein binding microarray
Form: double-stranded DNA, one strand shown
Matrix: in vitro
Tested at: not given
Setting: 8-mer, flanks averaged, mean of 2 arrays, mostly near background
Reference: not given
Reading: higher = stronger binding
Measurement: E-score
Construct (chain): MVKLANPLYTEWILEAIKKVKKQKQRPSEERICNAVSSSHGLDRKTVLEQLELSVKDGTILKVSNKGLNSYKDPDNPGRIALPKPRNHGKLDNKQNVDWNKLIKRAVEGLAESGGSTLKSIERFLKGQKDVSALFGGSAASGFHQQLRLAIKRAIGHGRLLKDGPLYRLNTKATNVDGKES
AACTCCTC: -0.134
CATATAAC: -0.00539
CCCGGCCG: 0.351
AGTTACAC: 0.00722
GACAATGA: -0.163
GGACTATA: -0.0233
CGCTCGGA: 0.295
CTGGCTTA: -0.297

Set 2
Target: POU domain, class 5, transcription factor 1, POU domain (Pou5f1, Mus musculus, UniProt P20263, residues 131-289)
Sequence of UniProt P20263 (131-289, looked up): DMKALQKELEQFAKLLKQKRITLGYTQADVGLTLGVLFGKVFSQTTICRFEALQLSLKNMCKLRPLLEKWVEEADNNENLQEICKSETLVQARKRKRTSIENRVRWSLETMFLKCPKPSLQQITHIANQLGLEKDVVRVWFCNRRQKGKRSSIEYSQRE
Technique: Spec-seq
Form: double-stranded DNA, one strand shown
Matrix: in vitro
Tested at: not given
Setting: whole probe, mean of replicates
Reference: not given
Reading: lower = stronger binding
Measurement: relative binding energy
Constant ends, left off below: GAGTCGTCTCGTCAGCAC … CCGTAGAGCACTCAGGTC
ATATATAT: -0.206 ln ratio
AAGGTAAT: 0.634 ln ratio
CTTCTAAT: 0.84 ln ratio
GTGCTAAT: -0.262 ln ratio
ATGCGATA: 0.289 ln ratio
ATGCCGAA: 0.732 ln ratio
AGTGTAAT: 0.637 ln ratio

Set 3
Target: Ras GTPase-activating protein-binding protein 1, RRM domain (G3BP1, Homo sapiens, UniProt Q13283)
Sequence of UniProt Q13283 (whole entry, looked up): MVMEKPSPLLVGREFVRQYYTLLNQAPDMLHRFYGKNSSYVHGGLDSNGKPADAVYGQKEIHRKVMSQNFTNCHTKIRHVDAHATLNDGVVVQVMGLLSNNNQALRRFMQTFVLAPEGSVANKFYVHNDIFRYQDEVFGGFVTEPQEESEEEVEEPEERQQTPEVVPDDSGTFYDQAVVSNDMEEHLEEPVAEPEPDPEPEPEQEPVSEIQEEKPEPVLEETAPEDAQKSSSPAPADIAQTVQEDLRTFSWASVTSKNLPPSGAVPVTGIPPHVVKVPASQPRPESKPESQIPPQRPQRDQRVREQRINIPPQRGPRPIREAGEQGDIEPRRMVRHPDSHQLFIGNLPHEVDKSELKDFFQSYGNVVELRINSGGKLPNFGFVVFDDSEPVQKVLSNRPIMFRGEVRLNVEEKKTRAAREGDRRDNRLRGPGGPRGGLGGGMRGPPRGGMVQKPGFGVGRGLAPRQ
Technique: RNA Bind-n-Seq
Form: RNA
Matrix: in vitro
Tested at: 1 µM
Setting: whole 134-nt RNA, ends assumed
With: 150 mM KCl
Reference: input library
Reading: higher = stronger binding
Measurement: log2 enrichment
Constant ends, left off below: GGGAGUUCUACAGUCCGACGAUC … UGGAAUUCUCGGGUGUCAAGG
GCAGGAAGUAAAAACAAAUGGAAAUGCUUCGGAUAGUGGCAGGGGUGGGGGUUGCUAACGAAAGGGUGGGAUGGGAGUGGGUAAAGAGUU: 1.25
GUCCUGUGCUACACAUCGUAUGUACCGAAUCGGGGUUUGGGGAAAAAGGGGAAAGGGGAAAGUAUUAUGUUACGCCGUUCGGAUCUGCAC: 1.78
CAAGUCCUGUGCUACACAUCGUAUGUACCGAAUCGGUUUUUUUGGAAAAAGGAGGAAAGUAUUAUGUUACGCCGUUCGGAUCUGCACUUC: -0.359
CCUGUGCUACACAUCGUAUGUACCGAAUCGGGGAAAAAAAGGGGAAAAAAAGGGGUGGGGAAAGUAUUAUGUUACGCCGUUCGGAUCUGC: 0.591
CUCAAGUCCUGUGCUACACAUCGUAUGUACCGAAUCGGGAGGGUUUGGGAGGGAAAGUAUUAUGUUACGCCGUUCGGAUCUGCACUUCCA: 0.849
GCAGGAAGUAAAAACAAAUGGAAAUGCUUCGGAUAGUGGCAGGGGUGGGGGUUGCUAAGGAAAAAGUGGGAUGGGAGUGGGUAAAGAGUU: 1.36

Single results of other studies
PhoQ, residues 284 288 289 292 302 303 AGGCYF  fold induction (PhoP, residues 12 14 15 18 19 MHTVL (Escherichia coli, UniProt P23836); Sort-seq, measured: YFP reporter; E. coli; PhoQ-PhoP variant library, with: 10 µM Mg2+; reference: high Mg2+ state, higher = stronger signaling): 18.5

Repeated from above (set 1):
CGCTCGGA: 0.295
GGACTATA: -0.0233
